Values quoted from earlier work that unrelated publications cite.
Each line is one published result; not all experiments were run side by side.

| Structure (SMILES) | system | setting | how to read | quantity | result |
| --- | --- | --- | --- | --- | --- |
| CC(C)(C)c1ccc(C(O)CCCN2CCC(C(O)(c3ccccc3)c3ccccc3)CC2)cc1 (stereo not shown) | human, plasma | concentration not given, median of reported values | – | Cmax | 0.003 µM |
| O=C(O)[C@H](c1ccccc1)[C@H]1CCCCN1 | human, by CES1 genotype, plasma | oral, 10 mg methylphenidate, single dose, median | – | Cmax | 70.5 ng/mL |
| C=C1C[C@@H]2[C@H](CC[C@]3(C)C(=O)CC[C@@H]23)[C@@]2(C)C=CC(=O)C=C12 | human, plasma | concentration not given, range of reported values | – | Cmax | 0.003 to 59100 µM |
| COc1ccccc1Oc1c(NS(=O)(=O)c2ccc(C(C)(C)C)cc2)nc(-c2ncccn2)nc1OCCO | human | 125 mg, 10 days | – | Cmax | 2.57 µM |
| Cc1nnc2n1-c1ccc(Cl)cc1C(c1ccccc1)=NC2 | human | added: ritonavir | baseline: with over without ritonavir | Cmax ratio | 1.04 |
| CC1(C)CCC(CN2CCN(c3ccc(C(=O)NS(=O)(=O)c4ccc(NCC5CCOCC5)c([N+](=O)[O-])c4)c(Oc4cnc5[nH]ccc5c4)c3)CC2)=C(c2ccc(Cl)cc2)C1 | human | 400 mg once daily | – | Cmax at steady state | 2240 ng/mL |
| O=c1[nH]c2ccccc2n1C1CCN(CCCC(c2ccc(F)cc2)c2ccc(F)cc2)CC1 | human, plasma | concentration not given, range of reported values | – | Cmax | 0.002 to 0.012 µM |
| O=C(O)CSc1nnc(Br)n1-c1ccc(C2CC2)c2ccccc12 | human, plasma total | 400 mg | – | Cmax | 30 µM |
| CC[C@H]1OC(=O)[C@H](C)[C@@H](O[C@H]2C[C@@](C)(OC)[C@@H](O)[C@H](C)O2)[C@H](C)[C@@H](O[C@@H]2O[C@H](C)C[C@H](N(C)C)[C@H]2O)[C@](C)(OC)C[C@@H](C)C(=O)[C@H](C)[C@@H](O)[C@]1(C)O | human | added: ritonavir | baseline: with over without ritonavir | Cmax ratio | 1.54 |
| C=C[C@@H]1C[C@]1(NC(=O)[C@@H]1C[C@@H]2CN1C(=O)[C@H](C(C)(C)C)NC(=O)O[C@@H]1C[C@H]1CCCCCc1nc3ccc(OC)cc3nc1O2)C(=O)NS(=O)(=O)C1CC1 | healthy human subjects, plasma | 100 mg, steady state | – | Cmax | 0.1 µM |

A few entries again:
| Structure (SMILES) | system | setting | how to read | quantity | result |
| --- | --- | --- | --- | --- | --- |
| O=C(O)CSc1nnc(Br)n1-c1ccc(C2CC2)c2ccccc12 | human, plasma total | 400 mg | – | Cmax | 30 µM |
